Measured values gathered from unrelated publications.
Compare with care: the assays were run in different laboratories. ± marks the error that the study gave.

For `NC(N)=NCCC[C@@H](N)C(=O)N[C@@H](CCCN=C(N)N)C(=O)N1CCC[C@H]1C(=O)N1C[C@H](O)C[C@H]1C(=O)NCC(=O)N[C@@H](Cc1cccs1)C(=O)N[C@@H](CO)C(=O)N1Cc2ccccc2C[C@@H]1C(=O)N1[C@H](C(=O)N[C@@H](CCCN=C(N)N)C(=O)O)C[C@@H]2CCCC[C@@H]21`, “central volume (Vc/F)” read 19.6 L (popPK base model typical value; human; subcutaneous, dose not given, reference weight 70 kg).
`COc1c(O)cc2c(c1O)C(=O)c1c(cc(C)c(O)c1OC)C2=O` has a viability of 73.6 ± 10.4% (HK-2 co-cultured with HepaRG; MTT; 266.67 µM, 24 h; baseline: untreated control).
`CNc1ccc(-c2nc3ccc(O)cc3s2)cc1` [carbon-11 labelled] gave an SUV of 0.16 ± 0.08 (ex vivo biodistribution; APP/PS1 mouse, AD model, thalamus; intravenous, 30 min).
With `CC(C)(C)c1ccc(O)c(CN(Cc2cc(C(C)(C)C)ccc2O)C2CCC(NC(N)=O)CC2)c1` (stereo not shown) the recovery was 94.9 ± 0.51% (mouse plasma; 2000 ng/mL, time not given, freeze-thaw, 3 cycles, -20 °C).
The terminal half-life of `COc1nnc2ccc(N3CCC(c4ccc(OCCN5CCN(C)C(=O)[C@H]5C)cc4)CC3)nn12` is reported as 1.8 to 5.4 h (human, plasma; oral, dose not given, single dose, monotherapy, across dose cohorts).
The cell viability of `COc1cc2c(c(O)c1OC)C(=O)c1c(cc(C)c(O[C@@H]3O[C@H](CO)[C@@H](O)[C@H](O)[C@H]3O)c1OC)C2=O` is reported as 74.2 ± 6.29% (HK-2 co-cultured with HepaRG; MTT; 133.33 µM, 24 h; baseline: untreated control).
`CC(C)C[C@H](NC(=O)CNC(=O)c1cc(Cl)ccc1Cl)B(O)O` — result for “treatment-emergent adverse events”: 0% (item: Neutropenia; human newly diagnosed multiple myeloma; oral, dose not given, maintenance, grade 3, onset cycle 17 or later).
With `CCCCOc1ccc([C@H]2CC[C@H](CCC)CC2)c(F)c1F` the median concentration was 7.61 ng/mL (human mother-newborn pairs, cord serum; male fetuses).
`Cc1ccc(Sc2ccccc2N2CCNCC2)c(C)c1`: “participants with TEAE” 16.7% (item: ureteric calculus; healthy adult men; oral, 10 mg daily, 12 days).
The Vz/F of `C[C@@H](N)C1CCN(S(=O)(=O)c2cccc3cnccc23)CC1` is reported as 9120 L (healthy volunteers, fasted, plasma; oral, 150 mg).
For `Cc1ccc([C@@H]2O[C@H](CO)[C@@H](O)[C@H](O)[C@H]2O)cc1Cc1ccc(-c2ccc(F)cc2)s1`, “urinary calcium excretion change” read -17.9 mg (Japanese type 2 diabetes patients; 100 mg, day 5, 24 h urine collection; baseline: baseline).
`C=CC(=O)Nc1cc(Nc2nccc(-c3cn(C)c4ccccc34)n2)c(OC)cc1N(C)CCN(C)C` has a recovery of 79.2% (storage stability; human plasma; 72 h, on ice, medium QC level).
`CCCCCCCCCCCCCCCC(=O)[O-].C[N+](C)(C)CCO` — result for “critical aggregation concentration”: 8.74 ± 0.08 mmol/L (fluorescence probe; water; 37 °C).
`CC[C@H](C)[C@H](NC(C)=O)C(=O)N[C@H]1CSSC[C@@H](C(=O)N[C@H](C(N)=O)[C@@H](C)O)NC(=O)[C@H](CCCNC(=N)N)NC(=O)[C@H](Cc2c[nH]cn2)NC(=O)[C@H](C)NC(=O)CNC(=O)[C@H](Cc2c[nH]c3ccccc23)NC(=O)[C@H](CC(=O)O)NC(=O)[C@H](CCC(N)=O)NC(=O)[C@H](Cc2c[nH]c3ccccc23)NC(=O)[C@H](C(C)C)NC1=O` gave a retention factor of 0.959 ± 0.008 (isocratic RP-HPLC, C18; 32% acetonitrile, phosphate pH 7.4, 1% TFA; 25 °C).
The Tlag of `CCc1c(-c2ccccc2)c(-c2ccccc2)nn1-c1ccccc1-c1cccc(OCC(=O)O)c1` is reported as 0 h (Sprague-Dawley rat; oral, dose not given).
For `CCc1cc(C(=O)NC)c2nccc(N3CCc4c(cc(Cn5ccnc5)cc4-c4cn(C)nc4C(F)(F)F)C3=O)c2c1`, “blood DBIL change” read -6.3% (Sprague Dawley rats; oral, 100 mg/kg twice daily, 7 days; baseline: vehicle).
`CCN1/C(=C/C(C)=O)Sc2ccc(F)cc21`: “PR interval change” 101 ± 7.1% (cynomolgus monkey; oral, 100 mg/kg, 0.5 h post-dose; baseline: pre-dose).
`CNCc1ccc(-c2[nH]c3cc(F)cc4c3c2CCNC4=O)cc1` has a neutropenia incidence of 0% (human patients; oral, 840 mg twice daily, all grades).
`O=C(c1nc2n(n1)[C@H](c1ccccc1)C[C@@H]2F)C1CC1` — result for “urinary excretion Ae(0-72 h)”: 0.152 mg (human, fed; oral, 75 mg single dose, mean).

Repeated from above:
For `Cc1ccc([C@@H]2O[C@H](CO)[C@@H](O)[C@H](O)[C@H]2O)cc1Cc1ccc(-c2ccc(F)cc2)s1`, “urinary calcium excretion change” read -17.9 mg (Japanese type 2 diabetes patients; 100 mg, day 5, 24 h urine collection; baseline: baseline).
`C=CC(=O)Nc1cc(Nc2nccc(-c3cn(C)c4ccccc34)n2)c(OC)cc1N(C)CCN(C)C` has a recovery of 79.2% (storage stability; human plasma; 72 h, on ice, medium QC level).
`CCCCCCCCCCCCCCCC(=O)[O-].C[N+](C)(C)CCO` — result for “critical aggregation concentration”: 8.74 ± 0.08 mmol/L (fluorescence probe; water; 37 °C).
